Results of several laboratories.
Every numbered part comes from another study and shows a few of its results, in no order.

Series 1
Target: Sal-like protein 4, full length isoform B (SALL4, Homo sapiens, UniProt Q9UJQ4-2, residues 1-616)
Method: universal PBM
Form: double-stranded DNA, one strand shown
Sample: in vitro
Concentration: not given
Setting: 8-mer, flanks averaged, mean of replicates
Direction: higher = stronger binding
Endpoint: E-score
Residues (chain): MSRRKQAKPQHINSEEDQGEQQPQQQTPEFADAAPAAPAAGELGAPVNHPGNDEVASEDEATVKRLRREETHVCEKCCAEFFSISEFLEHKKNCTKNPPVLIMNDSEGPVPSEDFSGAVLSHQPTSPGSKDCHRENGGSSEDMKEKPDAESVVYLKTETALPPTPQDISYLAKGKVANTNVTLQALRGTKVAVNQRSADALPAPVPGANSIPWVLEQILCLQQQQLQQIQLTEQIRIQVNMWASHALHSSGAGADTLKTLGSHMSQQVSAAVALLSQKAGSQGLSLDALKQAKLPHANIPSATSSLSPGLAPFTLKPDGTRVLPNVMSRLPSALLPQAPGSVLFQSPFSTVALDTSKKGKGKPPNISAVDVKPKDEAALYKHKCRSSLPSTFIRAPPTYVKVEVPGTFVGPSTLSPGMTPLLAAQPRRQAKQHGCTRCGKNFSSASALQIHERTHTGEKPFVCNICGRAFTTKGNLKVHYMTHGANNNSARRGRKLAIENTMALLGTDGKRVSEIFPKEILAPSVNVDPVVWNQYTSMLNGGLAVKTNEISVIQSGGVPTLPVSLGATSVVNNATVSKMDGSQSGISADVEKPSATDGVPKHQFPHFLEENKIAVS
CAATCGCA: 0.0343
ACTCTACA: -0.0763
CTGTCTGA: -0.0787
GCTGCATA: 0.0556
ACCCATGG: -0.349
AGCCTGAG: -0.26
AGTGCACT: 0.0991
CCGAAGAG: -0.0984

Series 2
Cell line: HEK-293T
Read-out: pseudovirus infection
Method: FDA-approved drug library screen
Organism: VSV pseudotyped with SARS-CoV-2 spike
Concentration: 10 µM
Time: 16 h
Baseline: vehicle-treated
Endpoint: GFP-positive cells
NCc1ccc(S(N)(=O)=O)cc1: 84.6%
CC(=O)[C@H]1CC[C@H]2[C@@H]3CCC4=CC(=O)CC[C@]4(C)[C@H]3CC[C@]12C: 101%
CCOc1cc(CC(=O)N[C@@H](CC(C)C)c2ccccc2N2CCCCC2)ccc1C(=O)O: 65.8%

Series 3
Target: Histone acetyltransferase KAT6A, both winged helices, GST fusion (KAT6A, Homo sapiens, UniProt Q92794, residues 1-181)
Method: protein binding microarray
Form: double-stranded DNA, one strand shown
Sample: in vitro
Concentration: not given
Setting: 8-mer, flanks averaged, mean of 2 arrays, mostly near background
Baseline: not given
Direction: higher = stronger binding
Endpoint: E-score
Target sequence (chain): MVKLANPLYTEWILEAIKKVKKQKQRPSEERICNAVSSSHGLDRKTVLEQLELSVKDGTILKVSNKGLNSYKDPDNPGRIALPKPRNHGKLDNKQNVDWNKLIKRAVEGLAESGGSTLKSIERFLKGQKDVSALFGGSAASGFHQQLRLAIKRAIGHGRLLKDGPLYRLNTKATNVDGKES
AATTGGTA: -0.0797
CTGATAGA: -0.0903
TCATCTAA: -0.0553
CATCATCA: -0.0832
CCACAACA: -0.197
AATGTCCC: 0.0188
AGCTACAG: -0.153
CGCTTTAA: 0.0502

Series 4
Target: Replicase polyprotein 1ab, nsp13 helicase (rep, Severe acute respiratory syndrome coronavirus 2, UniProt P0DTD1)
Mode: inhibitor
Concentration: 20 µM
Endpoint: inhibition
CC(C)=CCC/C(C)=C/CNCCNC1C2CC3CC(C2)CC1C3 (centres unmarked): 5.9%
COc1cc2ncnc(Oc3cccc(NC(=O)Nc4cc(C(C)(C)C(F)(F)F)on4)c3)c2cc1OC: 3.49%
CC(C)(C)Cn1c(N)nc2ccc(-c3[nH]c(C(C)(C)C)nc3-c3ccc(F)cc3)nc21: 2.89%
CC1(C)S[C@@H]2[C@H](NC(=O)[C@H](NC(=O)N3CCNC3=O)c3ccccc3)C(=O)N2[C@H]1C(=O)O: -4.89%
Cc1ccc(C(=O)Nc2cccc(C(F)(F)F)c2)cc1Nc1nc(-c2cccnc2)nc2c1cnn2C: 6.61%
COc1cc(C(=O)O)ccc1NC(=O)[C@@H]1N[C@@H](CC(C)(C)C)[C@](C#N)(c2ccc(Cl)cc2F)[C@H]1c1cccc(Cl)c1F: 0.07%
Cc1nc(C)c(C)nc1C: 1.61%
Oc1ccc2ccccc2c1SSc1c(O)ccc2ccccc12: 81%
CC(C)(C)NC(=O)[C@@H]1C[C@@H]2CCCC[C@@H]2CN1C[C@@H](O)[C@H](Cc1ccccc1)NC(=O)[C@H](CC(N)=O)NC(=O)c1ccc2ccccc2n1: -8.94%
COc1ccc(CCN2CCN(CCCc3ccccc3)CC2)cc1OC: 5.96%
Cc1ncc(OC[C@@]2(c3cccc(F)c3)C[C@H]2C(=O)Nc2ccc(F)cn2)c(C)n1: 9.14%
COc1cc(C(=O)NCC2(N(C)C)CCCC2)cc(OC)c1OCc1ccccc1: -1.36%
CN(C[C@@H]1COCCO1)S(=O)(=O)Nc1ccc2ccc3ncc(-c4cnn(C)c4)cc3c(=O)c2c1: 10.4%
C=C1/C(=C\C=C2/CCC[C@]3(C)[C@@H]([C@H](C)OCCC(C)(C)O)CC[C@@H]23)C[C@@H](O)C[C@@H]1O: -0.7%
CCCn1c(=O)c2[nH]c(-c3ccccc3)nc2n(CCC)c1=O: -0.95%
O=C(NCc1ccccc1)OCCO: 12.4%
Cc1[nH]c(/C=C2\C(=O)Nc3ccc(S(=O)(=O)Cc4c(Cl)cccc4Cl)cc32)c(C)c1C(=O)N1CCC[C@@H]1CN1CCCC1: 6.5%
COc1cc2c(cc1OC)C(c1ccc(N)cc1)=NNC(=O)C2: 6.79%
CCCCCCCCCCCCCCCC[N+](C)(C)C: 29%

Excerpt of the above (series 1):
CTGTCTGA: -0.0787
GCTGCATA: 0.0556
ACCCATGG: -0.349
AGCCTGAG: -0.26
AGTGCACT: 0.0991
CCGAAGAG: -0.0984
